{"data": "Results from different studies", "U2AF2": "U2AF2 148-342 (Homo sapiens, UniProt P26368)", "B1": "spo0J K256A (Bacillus subtilis, UniProt P26497); chain MAKGLGKGINALFNQVDLSEETVEEIKIADLRPNPYQPRKHFDDEALAELKESVLQHGILQPLIVRKSLKGYDIVAGERRFRAAKLAGLDTVPAIVRELSEALMREIALLENLQREDLSPLEEAQAYDSLLKHLDLTQEQLAKRLGKSRPHIANHLRLLTLPENIQQLIAEGTLSMGHGRTLLGLKNKNKLEPLVQKVIAEQLNVRQLEQLIQQLNQNVPRETKKKEPVKDAVLKERESYLQNYFGTTVNIKRQKAKGKIEIEFFSNEDLDRILELLSERES", "B2": "ITM2B 113-231 (Homo sapiens, UniProt Q9Y287); sequence looked up; chain QTIEENIKIFEEEEVEFISVPVPEFADSDPANIVHDFNKKLTAYLDLNLDKCYVIPLNTSIVMPPRNLLELLINIKAGTYLPQSYLIHEHMVITDRIENIDHLGFFIYRLCHDKETYKL", "B3": "Lag3 24-426 (Mus musculus, UniProt Q61790); sequence looked up; chain GPGKELPVVWAQEGAPVHLPCSLKSPNLDPNFLRRGGVIWQHQPDSGQPTPIPALDLHQGMPSPRQPAPGRYTVLSVAPGGLRSGRQPLHPHVQLEERGLQRGDFSLWLRPALRTDAGEYHATVRLPNRALSCSLRLRVGQASMIASPSGVLKLSDWVLLNCSFSRPDRPVSVHWFQGQNRVPVYNSPRHFLAETFLLLPQVSPLDSGTWGCVLTYRDGFNVSITYNLKVLGLEPVAPLTVYAAEGSRVELPCHLPPGVGTPSLLIAKWTPPGGGPELPVAGKSGNFTLHLEAVGLAQAGTYTCSIHLQGQQLNATVTLAVITVTPKSFGLPGSRGKLLCEVTPASGKERFVWRPLNNLSRSCPGPVLEIQEARLLAERWQCQLYEGQRLLGATVYAAESSSG", "B4": "SPA2 389-535 (Saccharomyces cerevisiae, UniProt P23201); Alexa 488 label; sequence looked up; chain LKITDGFISKYSSADGLIPAQYILNANNLIIQFTTRLSAVPIGDSTAISHQIGEELFQILSQLSNLISQLLLSADLLQYKDQVILLKASLSHAITSIRYFSVYGPVLIPKITVQAAVSEVCFAMCNLIDSAKIKSDSNGESTTSNEG", "B5": "GGPS1 (Homo sapiens, UniProt O95749); sequence looked up; chain MEKTQETVQRILLEPYKYLLQLPGKQVRTKLSQAFNHWLKVPEDKLQIIIEVTEMLHNASLLIDDIEDNSKLRRGFPVAHSIYGIPSVINSANYVYFLGLEKVLTLDHPDAVKLFTRQLLELHQGQGLDIYWRDNYTCPTEEEYKAMVLQKTGGLFGLAVGLMQLFSDYKEDLKPLLNTLGLFFQIRDDYANLHSKEYSENKSFCEDLTEGKFSFPTIHAIWSRPESTQVQNILRQRTENIDIKKYCVHYLEDVGSFEYTRNTLKELEAKAYKQIDARGGNPELVALVKHLSKMFKEENE", "B6": "phage phi29 gene 12 product D1*-D2-D3-D4 89-854 G817S/S777N/D701G/A535V/D457E/G449V/D372A/Q181E/K166R/E695Q (bacteriophage phi29, UniProt P20345); N-terminal His6; sequence looked up; chain FADLVIQVIDELKQFGVSVKTYGAKGDGVTDDIRAFEKAIESGFPVYVPYGTFMVSRGIKLPSNTVLTGAGKRNAVIRFMDSVGRGESLMYNENVTTGNENIFLSSFTLDGNNKRLGQGISGIGGSRESNLSIRACHNVYIRDIEAVDCTLHGIDITCGGLDYPYLGDGTTAPNPSENIWIENCEATGFGDDGITTHHSQYINILNCYSHDPRLTANCNGFEIDDGSRHVVLSNNRSKGCYGGIEIKAHGDAPAAYNISINGHMSVEDVRSYNFRHIGHHAATAPQSVSAKNIVASNLVSIRPNNKRGFQDNATPRVLAVSAYYGVVINGLTGYTDDPNLLTETVVSVQFRARNCSLNGVVLTGFSNSENGIYVIGGSRGGDAVNISNVTLNNSGRYGVSIGSGIENVSITNISGIGDGINSPVALVSTINSNPEISGLSSIGYPTVARVAGTDYNDGLTLFNGAFRASTTSSGKIHSEGFIMGSTSGCEASVSKSGVLTSSSSKTSSERSLIAGSSTSEAKGTYNTILGSLGAVADEQFAALISASQSRASGNHNLILSSYGINTTGSYKVNGGFEKINWELDSLNGRIKARDTVTGGNTWSDFAQYFESLGGQVIETGYLVTLEKGKIRKAEKGEKIIGVISETAGFVLGESSFEWQGAVLKNEFGGIIYEEVTTEDGVKFKRPLPNPDFDPNKNYIPRSQRREWHVVGLLGQIAVRIDETVKQGHSIDAVGGVATDGDNFIVQEITTPYTKEKGYGVAIVLVK", "B7": "calponin-2, human; sequence looked up; chain SSTQFNKGPSYGLSAEVKNRLLSKYDPQKEAELRTWIEGLTGLSIGPDFQKGLKDGTILCTLMNKLQPGSVPKINRSMQNWHQLENLSNFIKAMVSYGMNPVDLFEANDLFESGNMTQVQVSLLALAGKAKTKGLQSGVDIGVKYSEKQERNFDDATMKAGQCVIGLQMGTNKCASQSGMTAYGTRRHLYDPKNHILPPMDHSTISLQMGTNKCASQVGMTAPGTRRHIYDTKLGTDKCDNSSMSLQMGYTQGANQSGQVFGLGRQIYDPKYCPQGTVADGAPSGTGDCPDPGEVPEYPPYYQEEAGY", "B8": "POL30 1-258 E113G (Saccharomyces cerevisiae, UniProt P15873); chain MLEAKFEEASLFKRIIDGFKDCVQLVNFQCKEDGIIAQAVDDSRVLLVSLEIGVEAFQEYRCDHPVTLGMDLTSLSKILRCGNNTDTLTLIADNTPDSIILLFEDTKKDRIAGYSLKLMDIDADFLKIEELQYDSTLSLPSSEFSKIVRDLSQLSDSINIMITKETIKFVADGDIGSGSVIIKPFVDMEHPETSIKLEMDQPVDLTFGAKYLLDIIKGSSLSDRVGIRLSSEAPALFQFDLKSGFLQFFLAPKFNDEE", "B9": "pycC AGS-C cyclase domain 320-450 (Escherichia coli, UniProt P0DV24); sequence looked up; chain QFNFECFVIEDNKEVLYNSVSRFLPKKRRLTFKLSIYPGPGIGDLKIIFCKRNHGQEAKDDLSEDYSISIEDNKLIRVKNADNLSLLRKDGCYVLTVPEETLFRGLHTMEVIVRGNHETLFYRNIIGVYIK", "B10": "ilvA 335-514 (Escherichia coli, UniProt P04968); sequence looked up; chain EQREALLAVTIPEEKGSFLKFCQLLGGRSVTEFNYRFADAKNACIFVGVRLSRGLEERKEILQMLNDGGYSVVDLSDDEMAKLHVRYMVGGRPSHPLQERLYSFEFPESPGALLRFLNTLGTYWNISLFHYRSHGTDYGRVLAAFELGDHEPDFETRLNELGYDCHDETNNPAFRFFLAG", "B11": "trfB R48A (Escherichia coli, UniProt P03052); sequence looked up; chain MKKRLTESQFQEAIQGLEVGQQTIEIARGVLVDGKPQATFATSLGLTAGAVSQAVHRVWAAFEDKNLPEGYARVTAVLPEHQAYIVRKWEADAKKKQETKR", "B12": "CASP2 170-452 D333A/D347A/C370A (Homo sapiens, UniProt P42575); sequence looked up; chain GPVCLQVKPCTPEFYQTHFQLAYRLQSRPRGLALVLSNVHFTGEKELEFRSGGDVDHSTLVTLFKLLGYDVHVLCDQTAQEMQEKLQNFAQLPAHRVTDSCIVALLSHGVEGAIYGVDGKLLQLQEVFQLFDNANCPSLQNKPKMFFIQACRGDETDRGVDQQAGKNHAGSPGCEESAAGKEKLPKMRLPTRSDMICGYAALKGTAAMRNTKRGSWYIEALAQVFSERACDMHVADMLVKVNALIKDREGYAPGTEFHRCKEMSEYCSTLCRHLYLFPGHPPT", "B13": "rga7 33-307 K193A/K194A/K199A/K201A (Schizosaccharomyces pombe, UniProt O94466); sequence looked up; chain PKVEAILNSELGLAILNDRIKDYLLTCKELAGFFKKRSILEEESGKNLQKLAKSYLETFQSKHHSPQSFSASVITSMEIHEQLANHSLTLQKTLSAFSDQVIEFHKNAERKRKSIKEYAKKQENAYLEAVMQMDKSKSRFKGAETEYNRALDNKNTGDSQAAVGFFAPASNAQLTKLEDEARLKAENAESDMHSKIENAQNVQKQLLCIHRPNYIKQFFSLQREIESSLIANYLRYTKLCESNTLLNGLTIRPQKPTPTNCGLQHALDNINANTD", "B14": "PF1070 1-140 M69A/L70A/L73A/E74A (Pyrococcus furiosus, UniProt Q8U1Y4); sequence looked up; chain MPSSSKSDFSFSTLIIPQHYLRAILKVVSSSSVEVCGFLFGKENRVLKVRFIRNRLNSPVEFEMDPEEAAKAAAEAEQENLEVVGIFHSHIACPPIPSGKDLEGMKRWPVIWLIVNEKGEYKAWILSEKNKISEVKIVVE", "B15": "cfbA 1-143 (Methanocaldococcus jannaschii, UniProt Q58380); chain MEALVLVGHGSRLPYSKELLVKLAEKVKERNLFPIVEIGLMEFSEPTIPQAVKKAIEQGAKRIIVVPVFLAHGIHTTRDIPRLLGLIEDNHEHHHEHSHHHHHHHHHEHEKLEIPEDVEIIYREPIGADDRIVDIIIDRAFGR", "note": "Protocols differ between the studies behind these lines. Several values in a cell are separate wells, animals, samples, runs or records. ± marks the error that the study gave.", "UniProt P26368, sequence (whole entry, looked up)": "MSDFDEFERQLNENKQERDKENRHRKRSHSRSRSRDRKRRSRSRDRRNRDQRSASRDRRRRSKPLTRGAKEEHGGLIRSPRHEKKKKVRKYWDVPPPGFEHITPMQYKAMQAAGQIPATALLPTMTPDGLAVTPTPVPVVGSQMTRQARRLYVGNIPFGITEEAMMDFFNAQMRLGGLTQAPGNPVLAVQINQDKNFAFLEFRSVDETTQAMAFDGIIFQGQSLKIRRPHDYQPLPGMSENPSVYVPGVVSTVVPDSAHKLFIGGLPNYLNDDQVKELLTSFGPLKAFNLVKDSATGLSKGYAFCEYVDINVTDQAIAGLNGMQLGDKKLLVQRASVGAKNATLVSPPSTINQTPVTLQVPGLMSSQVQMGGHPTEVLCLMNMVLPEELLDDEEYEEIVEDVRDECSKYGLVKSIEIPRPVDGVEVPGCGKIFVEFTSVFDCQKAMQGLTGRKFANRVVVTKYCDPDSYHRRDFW", "UniProt Q8GUH7, sequence (whole entry, looked up)": "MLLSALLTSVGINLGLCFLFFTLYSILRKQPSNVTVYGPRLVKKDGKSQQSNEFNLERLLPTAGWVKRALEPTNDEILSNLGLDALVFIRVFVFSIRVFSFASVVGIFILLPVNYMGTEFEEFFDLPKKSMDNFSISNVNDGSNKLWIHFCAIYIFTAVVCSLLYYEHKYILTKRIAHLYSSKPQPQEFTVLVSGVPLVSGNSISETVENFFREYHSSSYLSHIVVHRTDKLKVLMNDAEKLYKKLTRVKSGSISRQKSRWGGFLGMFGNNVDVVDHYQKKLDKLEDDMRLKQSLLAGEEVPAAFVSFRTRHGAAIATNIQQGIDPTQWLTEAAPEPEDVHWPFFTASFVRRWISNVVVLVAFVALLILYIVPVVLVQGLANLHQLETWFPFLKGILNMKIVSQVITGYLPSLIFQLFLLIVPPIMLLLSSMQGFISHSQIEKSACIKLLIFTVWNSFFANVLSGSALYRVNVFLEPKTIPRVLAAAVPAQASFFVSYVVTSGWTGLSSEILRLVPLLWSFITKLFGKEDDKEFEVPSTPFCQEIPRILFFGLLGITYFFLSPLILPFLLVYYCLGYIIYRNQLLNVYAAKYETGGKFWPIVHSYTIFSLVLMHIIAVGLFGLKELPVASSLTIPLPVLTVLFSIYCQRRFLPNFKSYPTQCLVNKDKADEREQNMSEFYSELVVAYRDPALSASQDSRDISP", "UniProt P13393, sequence (whole entry, looked up)": "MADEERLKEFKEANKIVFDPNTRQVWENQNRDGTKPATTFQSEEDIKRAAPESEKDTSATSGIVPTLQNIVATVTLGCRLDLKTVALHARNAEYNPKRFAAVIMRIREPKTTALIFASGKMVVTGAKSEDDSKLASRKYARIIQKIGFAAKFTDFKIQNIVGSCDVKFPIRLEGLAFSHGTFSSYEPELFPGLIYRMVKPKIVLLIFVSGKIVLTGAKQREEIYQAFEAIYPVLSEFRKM", "UniProt Q8S403, sequence (whole entry, looked up)": "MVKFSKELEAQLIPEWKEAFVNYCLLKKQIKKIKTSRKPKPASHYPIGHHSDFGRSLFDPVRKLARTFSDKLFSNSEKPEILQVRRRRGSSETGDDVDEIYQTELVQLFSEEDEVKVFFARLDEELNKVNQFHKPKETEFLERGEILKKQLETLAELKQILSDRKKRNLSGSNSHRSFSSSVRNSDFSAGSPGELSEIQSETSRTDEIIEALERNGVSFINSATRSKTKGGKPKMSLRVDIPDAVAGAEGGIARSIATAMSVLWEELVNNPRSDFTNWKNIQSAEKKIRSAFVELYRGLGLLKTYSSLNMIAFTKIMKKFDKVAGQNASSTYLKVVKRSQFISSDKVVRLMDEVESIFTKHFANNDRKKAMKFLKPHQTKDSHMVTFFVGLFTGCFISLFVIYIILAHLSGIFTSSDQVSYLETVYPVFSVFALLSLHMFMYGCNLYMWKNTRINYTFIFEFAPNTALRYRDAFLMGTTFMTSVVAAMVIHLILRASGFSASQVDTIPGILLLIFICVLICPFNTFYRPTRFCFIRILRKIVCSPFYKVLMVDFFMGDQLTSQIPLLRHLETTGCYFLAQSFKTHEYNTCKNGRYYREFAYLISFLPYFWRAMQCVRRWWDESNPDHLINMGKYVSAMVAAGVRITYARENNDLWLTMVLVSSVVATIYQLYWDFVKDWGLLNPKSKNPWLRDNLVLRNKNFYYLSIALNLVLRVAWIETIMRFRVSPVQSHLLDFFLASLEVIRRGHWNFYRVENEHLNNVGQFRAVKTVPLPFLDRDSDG"}
{"Substance": "PHO1 (UniProt Q8S403)", "target or system": "itself", "assay": "cryo-EM", "endpoint": "subunits per oligomer", "result": 2}
{"Substance": "B1 (spo0J K256A)", "target or system": "itself", "assay": "SEC-MALS", "endpoint": "subunits per oligomer", "result": 2}
{"Substance": "B2 (ITM2B 113-231)", "target or system": "itself", "assay": "cryo-EM", "endpoint": "subunits per oligomer", "result": 12}
{"Substance": "B3 (Lag3 24-426)", "target or system": "itself", "assay": "AUC", "endpoint": "subunits per oligomer", "result": 2}
{"Substance": "B4 (SPA2 389-535)", "target or system": "itself", "assay": "mass photometry", "endpoint": "subunits per oligomer", "result": 3}
{"Substance": "B5 (GGPS1)", "target or system": "itself", "assay": "SEC-MALS", "endpoint": "subunits per oligomer", "result": 6}
{"Substance": "B6", "target or system": "itself", "assay": "crystal structure", "endpoint": "subunits per oligomer", "result": 3}
{"Substance": "GGUUUAGGU (ssRNA)", "target or system": "U2AF2", "assay": "sequencing of bound RNA", "test system": "RNA", "setting": "motif only", "endpoint": "Kd", "result": "7.68 µM"}
{"Substance": "OSCA2.3 (Arabidopsis thaliana, UniProt Q8GUH7)", "target or system": "itself", "assay": "cryo-EM structure", "endpoint": "subunits per oligomer", "result": 2}
{"Substance": "B7 (calponin-2, human)", "target or system": "PP6C (human)", "assay": "co-immunoprecipitation, IP-MS", "test system": "CYB5R4 knockout cells", "setting": "concentration not given", "how to read": "relative to: CYB5R4 knockout over parental", "endpoint": "log2 fold change", "result": -1.86}
{"Substance": "B8 (POL30 1-258 E113G)", "target or system": "itself", "assay": "native gel", "endpoint": "subunits per oligomer", "result": 3}
{"Substance": "B9", "target or system": "itself", "assay": "SEC-MALS", "endpoint": "subunits per oligomer", "result": 2}
{"Substance": "human glutamate dehydrogenase 2", "target or system": "PP6C (human)", "assay": "co-immunoprecipitation, IP-MS", "test system": "CYB5R4 knockout cells", "setting": "concentration not given", "how to read": "relative to: CYB5R4 knockout over parental", "endpoint": "log2 fold change", "result": -1.48}
{"Substance": "B10 (ilvA 335-514)", "target or system": "itself", "assay": "SEC", "endpoint": "subunits per oligomer", "result": 2}
{"Substance": "B11 (trfB R48A)", "target or system": "itself", "assay": "SEC", "endpoint": "subunits per oligomer", "result": 2}
{"Substance": "B12", "target or system": "itself", "assay": "SEC", "endpoint": "subunits per oligomer", "result": 2}
{"Substance": "B13", "target or system": "itself", "assay": "cross-linking", "endpoint": "subunits per oligomer", "result": "4 and 3 and 2"}
{"Substance": "CUCUGUCCU (ssRNA)", "target or system": "U2AF2", "assay": "sequencing of bound RNA", "test system": "RNA", "setting": "motif only", "endpoint": "Kd", "result": "0.7 µM"}
{"Substance": "B14", "target or system": "itself", "assay": "SEC", "endpoint": "subunits per oligomer", "result": 2}
{"Substance": "DNA 1 AGCTAAAATTTGGACAGCTCTCATTACTAAATTAATCAATTCAATCGGTCC / DNA 2 GGACCGATTGACTTGATTAATTTAGTAATGAGAGCTGTCCAAATTTTAGCT (dsDNA; 5'-amino-C6 primer)", "target or system": "SPT15 full length assumed (Saccharomyces cerevisiae, UniProt P13393)", "assay": "array", "test system": "double-stranded DNA", "setting": "TBP alone", "endpoint": "Kd", "result": "0.00063 ± 3e-05 µM"}
{"Substance": "B15 (cfbA 1-143)", "target or system": "itself", "assay": "SEC", "endpoint": "subunits per oligomer", "result": 2}
{"note": "For quick reference, copied from above:"}
{"Substance": "B10 (ilvA 335-514)", "target or system": "itself", "assay": "SEC", "endpoint": "subunits per oligomer", "result": 2}
{"Substance": "B11 (trfB R48A)", "target or system": "itself", "assay": "SEC", "endpoint": "subunits per oligomer", "result": 2}
